Measurements from different studies.
Each line is one published result; not all experiments were run side by side. Values joined by “and” are separate records of one study, mostly repeats; a detail may differ. ± gives the spread as reported.

For `CC(=O)N1CCC(Nc2cc(C(=O)NC[C@H](O)CN3CCc4ccccc4C3)ncn2)CC1`, the Tmax was 2.17 h (human; oral, 300 mg, median).
`CC(F)(F)c1cc(F)ccc1-c1sc2cc(O)ccc2c1Oc1ccc(/C=C/C(=O)O)cc1` has a Tmax of 3 h (human, serum; oral, 900 mg once daily, cycle 1 day 28, fasted, median).
For `C#C[C@]1(CO)O[C@@H](n2cnc3c(N)nc(F)nc32)C[C@@H]1O`, the Tmax was 0.25 to 1 h (human, plasma; oral).
The Tmax of `CC(=O)N(C)[C@H]1CCN(C(=O)c2cnc3c(c2)C[C@](C)(c2ccc(F)cc2)N3)C1` is reported as 1 h (healthy male human, plasma; oral, 15 mg once daily, median).
With `COC(=O)N[C@@H](C)CNc1nccc(-c2cn(C(C)C)nc2-c2cc(Cl)cc(NS(C)(=O)=O)c2F)n1` the Tmax was 1.5 h (human, plasma; oral, 50 mg, single dose alone; median).
Under Tmax, `CC1(C)CC[C@]2(NC(=O)C(C)(F)F)CC[C@]3(C)[C@H](C(=O)C=C4[C@@]5(C)C=C(C#N)C(=O)C(C)(C)[C@@H]5CC[C@]43C)[C@@H]2C1` is recorded as “no effect” (human, plasma; added: itraconazole; reference: without itraconazole).
`N#CCC1CCN(c2nc(Nc3ccc(N4CCC(O)CC4)cc3)c3c(=O)[nH]ncc3n2)CC1` has a Tmax of 2 h (LC-MS/MS; human, plasma; oral, 80 mg once daily, day 1, median).
`N#Cc1cc(NC(=O)[C@H]2c3ccccc3C(=O)N(CC(F)(F)F)[C@@H]2c2cccnc2)ccc1F` gave a Tmax of 1.5 h (human, plasma; oral, 150 mg, median).
For `CCCCCCCOc1ccc(CCC(N)(CO)CO)cc1C(F)(F)F.Cl`, the Tmax was 12 h (healthy human males, plasma; oral, 0.5 mg, day 1, median).
`Nc1ccc(S(=O)(=O)Nc2ccccn2)cc1` gave a Tmax of 10 h (human; oral, 1000 mg, day 1, sulfasalazine alone).
With `CN(C)C(=O)c1cc2cnc(Nc3ccc(N4CCNCC4)cn3)nc2n1C1CCCC1` the Tmax was 3.5 ± 1.6 h (human, expansion cohort, plasma; oral, 800 mg, day 8, added: gemcitabine 1000 mg/m^2).
`Cc1cc(-c2nnc(N)nc2-c2ccc(F)cc2)cc(Cl)n1` gave a Tmax of 2 h (human patients, plasma; oral, 150 mg capsule, single dose, median).
`CC1(COc2ccc3c(c2)ncn3-c2ccc3cccc(N4CCC(N)CC4)c3n2)COC1` gave a Tmax of 3 h (human patients, recurrent/progressive HGG or DIPG, serum; oral, 130 mg/m^2, day 28, median).
The Tmax of `Cn1nnc2c(C(N)=O)ncn2c1=O` is reported as 2 h (human patients, plasma; oral, 20 mg/m2, day 5, dose level DL2, median, added: talazoparib 400 µg/m2).
For `Cn1cncc1[C@@](N)(c1ccc(Cl)cc1)c1ccc2c(c1)c(-c1cccc(Cl)c1)cc(=O)n2C`, the Tmax was 3 h (human, plasma; oral, 300 mg/m^2, median, first dose).
`O=C(c1cc(Cc2n[nH]c(=O)c3ccccc23)ccc1F)N1CCN(C(=O)C2CC2)CC1` has a Tmax of 2 h (human, female, plasma; oral, 200 mg twice daily, added: abemaciclib).
`COCCOc1cnc2ccn([C@H](C)c3nnc4c(F)cc(-c5cnn(C)c5)cn34)c(=O)c2c1` has a Tmax of 2.9 h (human patients, plasma; 300 mg once daily, day 1).
The Tmax of `CC(C)[C@H](N)C(=O)NCCCS(=O)(=O)O` is reported as 1 h (median; human, plasma; oral, 340 mg twice daily days 8-13, once daily day 14, day 14, fed, capsule).
`COc1ncc(-c2nc3c(n2C(C)C)[C@H](c2ccc(Cl)cc2)N(c2cc(Cl)cn(C)c2=O)C3=O)c(OC)n1` has a Tmax of 2 h (LC-MS/MS, noncompartmental; human, plasma; oral, 150 mg, C1D8, high-dose, median).
`C#C[C@]1(COP(=O)(O)OP(=O)(O)O)O[C@@H](n2cnc3c(N)nc(F)nc32)C[C@@H]1O` gave a Tmax of 18 h (measured: islatravir triphosphate; human, PBMC; oral, 5 mg single dose).
`COc1cc(N2CCC(N3CCN(C)CC3)CC2)ccc1Nc1ncnc(Nc2ccccc2S(=O)(=O)C(C)C)n1` has a Tmax of 2.64 h (human, dose expansion arm, plasma; oral, 200 mg, day 1, mean).
The Tmax of `COc1nnc2ccc(N3CCC(c4ccc(OCCN5CCN(C)C(=O)[C@H]5C)cc4)CC3)nn12` is reported as 1 h (human, plasma; oral, 10 mg once daily, multiple dose, monotherapy).
The Tmax of `CN(CC#N)C(=O)C[C@H](Nc1nc2ccccc2[nH]1)c1cccc(C(F)(F)F)c1` is reported as 0.49 ± 0.01 h (human; intravenous infusion, 1.5 mg/kg, 1 mg/mL formulation).
For `CCn1cc(C(=O)N2CCOCC2)c(=O)c2cc(NC3Cc4ccccc4C3)cnc21`, the Tmax was 8 h (human, fed; oral suspension, 1200 mg single dose, median).
The Tmax of `C[C@H](NC(=O)/C(C#N)=C/c1cccc(Br)n1)c1ccccc1` is reported as 0.5 h (LC-MS/MS; human, plasma; oral, 2 mg/kg, cycle 1 day 1).
With `C=CC(=O)NC1CCN(c2ncc3ncnc(Nc4ccc(Oc5ccc6c(c5)ncn6C)c(C)c4)c3n2)CC1` the Tmax was 1.5 h (human, male, plasma; oral, 30 mg single dose, fasted, median).
`C#Cc1cccc(Nc2ncnc3cc(OCCOC)c(OCCOC)cc23)c1` has a Tmax of 3 h (human, plasma; oral, 100 mg daily, day 8, median, added: docetaxel).
`Cc1cc(-c2nccc3c2ccn3CC(=O)Nc2ccc(-c3cnccn3)cn2)ccn1` has a Tmax of 1 h (human, plasma; oral, 15 mg once daily, day 1, median).
With `Cc1ncnc2c1ccn2[C@@H]1C[C@H](Oc2cc(C(F)F)c(F)c3c2CNCC3)[C@@H](O)[C@H]1O` the Tmax was 2 h and 1 h (human, plasma; 8 mg once daily).
For `C#C[C@]1(COP(=O)(O)O)O[C@@H](n2cnc3c(N)nc(F)nc32)C[C@@H]1O`, the Tmax was 6.03 h (measured: islatravir triphosphate; human, PBMC; oral, 15 mg single dose).
`CN(C)C(=O)c1cc2cnc(Nc3ccc(N4CCNCC4)cn3)nc2n1C1CCCC1` gave a Tmax of 2 h (human, normal renal function, plasma; oral, 400 mg, single dose, median).
For `Cc1cn(C(=O)c2c(-c3c(Cl)cc(Cl)cc3Cl)noc2C(C)(C)F)c2cccc(/C=C/C(=O)O)c12`, the Tmax was 3.98 h (human patients; 700 mg bid, cycle 8 day 1).
`CC1=C(c2cccc(O)c2)[C@H](c2ccc(OCCN3CC(CF)C3)cc2)Oc2ccc(O)cc21` has a Tmax of 3 h (human, plasma; oral, 1400 mg single dose, median).
With `Cc1cc(C)c(CNC(=O)c2cc(Cl)c3c(c2C)O[C@@](C)([C@H]2CC[C@H](N(C)C)CC2)O3)c(=O)[nH]1` the Tmax was 2.75 h (measured: total radioactivity; human male, whole blood; oral, 200 mg, median).
For `Cc1nc(-c2ccc(OCC(C)C)c(C#N)c2)sc1C(=O)O`, the Tmax was 1.75 h (human; oral, 10 mg once daily, added: verinurad 0 mg).
`Cc1ccc(NC(=O)c2ccc(CN3CCN(C)CC3)cc2)cc1Nc1nccc(-c2cncc(-c3oncc3C)c2)n1` has a Tmax of 5 ± 1.7 h (healthy human volunteers, plasma; oral, 200 mg/day, multiple ascending dose, steady state).
For `Cn1ncnc1[C@H]1c2n[nH]c(=O)c3cc(F)cc(c23)N[C@@H]1c1ccc(F)cc1`, the Tmax was 1 h (human patients, plasma; oral, 600 µg/m2 twice daily, day 1, monotherapy, dose level DL6, median).
`NC(CO)(CO)CCc1ccc(Sc2cccc(OCc3ccccc3)c2)cc1Cl` has a Tmax of 12 h (human male fasted, whole blood; oral, 3 mg, given alone).
`CC(C)NC(=O)COc1cccc(-c2nc(Nc3ccc4[nH]ncc4c3)c3ccccc3n2)c1` has a Tmax of 2 h (human male, plasma; oral, 200 mg, day 6, fed, alone, median).
`Cc1cc(Nc2cc3ncccc3c(N[C@@H]3C[C@H]4CC[C@@H](C3)N4CCC#N)n2)n[nH]1` has a Tmax of 1.01 h (human, plasma; 1000 mg single dose, median).
`CCNCCCNC/C=C\CNCCCNCC` has a Tmax of 0.5 h (LC-MS/MS; human cancer patients, plasma; intravenous infusion 60 min, 150 mg, median, cycle 1).
`COc1cc([C@@H]2Oc3cc([C@H]4Oc5cc(O)cc(O)c5C(=O)[C@@H]4O)ccc3O[C@H]2CO)ccc1O` has a Tmax of 0.25 h (OATP1B1/1B3 humanized mice, plasma; oral gavage, 500 mg/kg silymarin, median).
With `N#CCNC(=O)c1ccc(-c2ccnc(Nc3ccc(N4CCOCC4)cc3)n2)cc1` the Tmax was 2.5 h (healthy human volunteers, plasma; oral, 100 mg once daily, day 7, fed, given alone).
The Tmax of `C[C@H](Oc1ccc(Br)cc1-c1ccon1)C(=O)O` is reported as 2.5 h (LC-MS/MS, non-compartmental; human, plasma; 400 mg once daily, day 10, multiple ascending dose, median).
`CC(C)n1nc(-c2ccc3oc(N)nc3c2)c2c(N)ncnc21` gave a Tmax of 0.5 h (human patients, plasma; oral, 3 mg once daily, cycle 1 day 1, dose expansion).
For `Cc1noc(C)c1-c1cc(C(O)(c2ccccn2)c2ccccn2)c2nc(C3CC3)[nH]c2c1`, the Tmax was 1 h (human patients, plasma; oral, 3 mg, cycle 1 day 8, monotherapy).
`CC(C)(C(=O)NC1C2CC3CC1CC(C(N)=O)(C3)C2)N1CCN(c2ccc(C(F)(F)F)cn2)CC1` (stereo not shown) gave a Tmax of 2.6 h (human, plasma; 50 mg once daily, 5 days, median).
`COc1cc(C(=O)NC2CCN(C)CC2)c(F)cc1Nc1ncc(C(F)(F)F)c(Oc2cccc3c2C(=O)N(C)C3)n1` gave a Tmax of 2.95 h (human, Japanese, plasma; oral, 200 mg single dose, median).
For `C[C@H]1[C@H](OC(=O)CCC(=O)O)O[C@@H]2O[C@@]3(C)CC[C@H]4[C@H](C)CC[C@@H]1[C@@]24OO3`, the Tmax was 0.26 h (human, both sexes, plasma; oral, dose not given, fixed-dose combination).
The Tmax of `C[C@@H](N)c1cc(Cl)ccc1Cn1c(=S)[nH]c(=O)c2[nH]ccc21` is reported as 1.5 h (human, both sexes, severe renal impairment, plasma; oral, 2.5 mg single dose, median).
The Tmax of `CCCS(=O)(=O)N[C@H]1C[C@@H](N(C)c2ncnc3[nH]ccc23)C1` is reported as 1 h (human, plasma; oral, 200 mg single dose).
`CN(C)CCCNC(=O)/C(=C/CCCCC(=O)NO)COc1cccc2ccccc12` has a Tmax of 0.08 h (human; iv, 187.5 mg/m2, day 1, single dose, mean).

For quick reference, copied from above:
With `CN(C)C(=O)c1cc2cnc(Nc3ccc(N4CCNCC4)cn3)nc2n1C1CCCC1` the Tmax was 3.5 ± 1.6 h (human, expansion cohort, plasma; oral, 800 mg, day 8, added: gemcitabine 1000 mg/m^2).
`C#Cc1cccc(Nc2ncnc3cc(OCCOC)c(OCCOC)cc23)c1` has a Tmax of 3 h (human, plasma; oral, 100 mg daily, day 8, median, added: docetaxel).
For `Cn1ncnc1[C@H]1c2n[nH]c(=O)c3cc(F)cc(c23)N[C@@H]1c1ccc(F)cc1`, the Tmax was 1 h (human patients, plasma; oral, 600 µg/m2 twice daily, day 1, monotherapy, dose level DL6, median).
`CC1=C(c2cccc(O)c2)[C@H](c2ccc(OCCN3CC(CF)C3)cc2)Oc2ccc(O)cc21` has a Tmax of 3 h (human, plasma; oral, 1400 mg single dose, median).
